# Experimental data from different studies.
# Numbered parts are unrelated; each lists some results of a single study. Changes are numbered by the printed parent chain.

# Block 1
# Target: CCNF, cyclin fold, Cln2 fusion (human)
# Technique: yeast growth competition, sequencing
# Matrix: yeast
# Setting: strong parent motif
# Reference: not given
# Reading: higher = stronger binding
# Parent: RBL2 docking peptide (human); STTRRRLFVENDS; partner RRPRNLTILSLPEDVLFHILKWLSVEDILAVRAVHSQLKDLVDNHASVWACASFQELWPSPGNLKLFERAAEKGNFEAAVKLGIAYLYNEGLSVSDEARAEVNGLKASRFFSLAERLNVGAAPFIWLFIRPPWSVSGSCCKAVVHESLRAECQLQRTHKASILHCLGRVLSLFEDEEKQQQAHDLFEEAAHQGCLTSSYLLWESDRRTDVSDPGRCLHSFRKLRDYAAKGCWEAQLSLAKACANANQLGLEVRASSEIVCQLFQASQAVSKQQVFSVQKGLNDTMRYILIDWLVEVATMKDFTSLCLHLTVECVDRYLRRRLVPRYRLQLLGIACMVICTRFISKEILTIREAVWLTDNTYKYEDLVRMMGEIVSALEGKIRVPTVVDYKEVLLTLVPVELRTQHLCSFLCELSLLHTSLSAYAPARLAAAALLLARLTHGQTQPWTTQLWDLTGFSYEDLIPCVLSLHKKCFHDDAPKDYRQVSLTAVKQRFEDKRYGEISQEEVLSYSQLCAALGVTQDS
Change,normalised enrichment score
STTRRRLFVEIDS [N11I],8.6
STTRRRLFNENDS [V9N],8.69
STTRRRLFCENDS [V9C],9.37
HTTRRRLFVENDS [S1H],7.5
SHTRRRLFVENDS [T2H],8.97
STTRRRLFVENTS [D12T],7.99
SSTRRRLFVENDS [T2S],8.07
STTRRRLDVENDS [F8D],2.32
ITTRRRLFVENDS [S1I],7.84
STFRRRLFVENDS [T3F],5.9
STTRHRLFVENDS [R5H],1.47
STTRNRLFVENDS [R5N],0.423
STTRLRLFVENDS [R5L],0.781
STKRRRLFVENDS [T3K],1.04
STDRRRLFVENDS [T3D],0.918
NTTRRRLFVENDS [S1N],7.66
STTRRRLFVENQS [D12Q],8.03
STTIRRLFVENDS [R4I],6.85

# Block 2
# Target: Sal-like protein 4, full length isoform A (SALL4, Homo sapiens, UniProt Q9UJQ4, residues 1-1053)
# Chain of UniProt Q9UJQ4 (whole entry, looked up): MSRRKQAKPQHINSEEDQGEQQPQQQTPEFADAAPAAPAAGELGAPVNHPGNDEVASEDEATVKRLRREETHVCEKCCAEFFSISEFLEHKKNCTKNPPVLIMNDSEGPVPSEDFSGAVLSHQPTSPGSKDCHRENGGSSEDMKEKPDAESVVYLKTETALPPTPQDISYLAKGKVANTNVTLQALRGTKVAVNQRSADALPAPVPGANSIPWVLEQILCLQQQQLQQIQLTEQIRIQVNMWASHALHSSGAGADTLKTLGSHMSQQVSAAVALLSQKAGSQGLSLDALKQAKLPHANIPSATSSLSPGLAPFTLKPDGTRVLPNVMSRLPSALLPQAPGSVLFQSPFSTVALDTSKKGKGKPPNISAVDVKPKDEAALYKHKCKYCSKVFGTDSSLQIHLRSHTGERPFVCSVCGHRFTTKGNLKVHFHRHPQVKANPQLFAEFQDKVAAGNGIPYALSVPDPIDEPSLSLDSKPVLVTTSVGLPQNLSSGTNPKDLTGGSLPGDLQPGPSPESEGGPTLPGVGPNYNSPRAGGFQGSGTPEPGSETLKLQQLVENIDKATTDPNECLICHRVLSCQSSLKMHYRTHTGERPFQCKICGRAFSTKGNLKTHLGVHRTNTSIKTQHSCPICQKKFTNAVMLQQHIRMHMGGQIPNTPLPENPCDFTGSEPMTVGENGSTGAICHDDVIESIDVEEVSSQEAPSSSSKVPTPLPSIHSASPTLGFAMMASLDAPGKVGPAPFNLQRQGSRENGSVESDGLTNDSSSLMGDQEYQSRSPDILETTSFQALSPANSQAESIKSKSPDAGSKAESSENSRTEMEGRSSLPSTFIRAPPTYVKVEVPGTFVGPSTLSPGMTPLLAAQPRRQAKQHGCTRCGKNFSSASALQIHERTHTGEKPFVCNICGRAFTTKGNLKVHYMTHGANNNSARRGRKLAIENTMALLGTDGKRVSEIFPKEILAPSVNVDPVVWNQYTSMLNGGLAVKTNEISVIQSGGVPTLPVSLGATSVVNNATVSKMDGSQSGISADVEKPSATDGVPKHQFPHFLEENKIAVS
# Technique: universal PBM
# Molecule type: double-stranded DNA, one strand shown
# Matrix: in vitro
# Tested at: 600 nM
# Setting: 8-mer, flanks averaged, mean of replicates
# Reading: higher = stronger binding
Oligonucleotide,E-score
CGGACCCG,-0.375
GACAATTA,0.291
ACTGATGC,-0.081
CAAGGTAG,-0.079
AGCTGTGA,-0.00754
AAAACTAT,0.23
AATGGTAT,0.249
AACGGAGC,-0.248
CCAGATTC,-0.184
CGCCGCTC,-0.324
CGAAACGA,-0.017
ACGTACGC,-0.121
CTCTCCTC,-0.17
ACGATGCC,-0.32
CGACACCC,-0.234
ATTCGTAA,0.333
CTCATCGC,-0.0681
ATCAGACC,-0.0409

# Block 3
# Target: Histone acetyltransferase KAT6A, winged helix 1, GST fusion (KAT6A, Homo sapiens, UniProt Q92794, residues 1-85)
# Technique: protein binding microarray
# Molecule type: double-stranded DNA, one strand shown
# Matrix: in vitro
# Tested at: not given
# Setting: 8-mer, flanks averaged, mean of 2 arrays, mostly near background
# Reference: not given
# Reading: higher = stronger binding
# Residues (chain): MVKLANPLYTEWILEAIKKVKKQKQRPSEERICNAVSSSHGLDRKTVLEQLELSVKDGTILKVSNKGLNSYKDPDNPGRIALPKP
Oligonucleotide,E-score
CTGTGTCC,-0.0792
CGAACGTC,-0.000195
CCCTCAGC,0.0205
GCCCCACA,-0.13
ATTTTTTA,-0.155
ATTGGGTC,-0.116
GGCCTTAC,0.0968
CAACGTAG,-0.154
CGAAGGTA,-0.061
AGAGTTAA,-0.325
ACCCGTGC,0.304
ATTGCGAC,0.163
ACAACAGG,-0.213
GCCTTGGA,-0.134
CCAGACAG,-0.272
TCGGGTAA,0.083
AACAATTG,-0.175
GCGAGCAA,0.0131
CGGATTAG,0.204
GTAACTAA,0.0801
CCGGCCCC,0.249
AAAACAAG,-0.0896
GTGGCCAA,-0.227
CCGACTTA,-0.0608
GGCCCCCA,-0.17

# Block 4
# Target: Ras GTPase-activating protein-binding protein 1, full length (G3BP1, Homo sapiens, UniProt Q13283)
# Chain of UniProt Q13283 (whole entry, looked up): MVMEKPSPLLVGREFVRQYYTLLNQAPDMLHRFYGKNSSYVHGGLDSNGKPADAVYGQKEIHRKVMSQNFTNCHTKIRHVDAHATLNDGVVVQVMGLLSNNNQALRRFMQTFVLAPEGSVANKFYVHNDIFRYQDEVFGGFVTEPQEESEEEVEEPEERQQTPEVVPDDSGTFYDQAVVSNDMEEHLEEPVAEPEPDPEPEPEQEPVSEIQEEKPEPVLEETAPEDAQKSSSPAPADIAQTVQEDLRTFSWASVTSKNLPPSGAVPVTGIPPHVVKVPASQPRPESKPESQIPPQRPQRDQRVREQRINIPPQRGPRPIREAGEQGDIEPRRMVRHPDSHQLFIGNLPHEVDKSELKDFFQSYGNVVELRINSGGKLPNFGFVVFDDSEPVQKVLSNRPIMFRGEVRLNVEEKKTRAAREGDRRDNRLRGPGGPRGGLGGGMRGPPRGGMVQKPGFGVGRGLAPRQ
# Technique: RNA Bind-n-Seq
# Molecule type: RNA
# Matrix: in vitro
# Tested at: 200 nM
# Setting: whole 134-nt RNA, ends assumed
# Added: 150 mM KCl
# Reference: input library
# Reading: higher = stronger binding
# Shared flanks, not repeated: GGGAGUUCUACAGUCCGACGAUC … UGGAAUUCUCGGGUGUCAAGG
Oligonucleotide,log2 enrichment
AAGUCCUGUGCUACACAUCGUAUGUACCGAAUCGGGGCCCCGGCCCCGGGGCCCCGGAAAGUAUUAUGUUACGCCGUUCGGAUCUGCACU,-0.915
AAGUCCUGUGCUACACAUCGUAUGUACCGAAUCGGGGAAAGGGGAGGGGAAAGGGGAAAGUAUUAUGUUACGCCGUUCGGAUCUGCACUU,0.373
UCAAGUCCUGUGCUACACAUCGUAUGUACCGAAUCGGGGUUUGGUUUGGUUUGGAAAGUAUUAUGUUACGCCGUUCGGAUCUGCACUUCC,-0.0952
GGCACCCUUUGAAGGGGAGGAUGAAGAUGAACUCUUCCAAUCCAUCAUGGAACACAACGUAGCCUAUCCCAAGUCUAUGUCCAAGGAAGC,0.203
CUGUGCUACACAUCGUAUGUACCGAAUCGGGGUUUUUUUGGGGUUUUUUUGGGGUUUGGGGAAAGUAUUAUGUUACGCCGUUCGGAUCUG,-0.389
UAACUUUAGAGGAGGAUCUGAUGGAUAUGGCAGUGGACGUGGCUUUGGGGAUGGCUAUAAUGGGUAUGGAGGAGGACCUGGAGGUGGCAA,0.139
UGGGAGGUGGAUUUUGUUUAUUUUUUUAGCUCAUUUCCAGGGGUGGAAAUUUUUUUUUAAUAUGUGUCAUGAAUAAAGUUGUUUUUGAAA,0.0213
UCCUGUGCUACACAUCGUAUGUACCGAAUCGGGCCCCCCGGCCCCCCGGGGCCCCCCGGGAAAGUAUUAUGUUACGCCGUUCGGAUCUGC,0.0544
UCCUGUGCUACACAUCGUAUGUACCGAAUCGGGGUUUUUUUGGGGUGGGGUUUUUGGGGAAAGUAUUAUGUUACGCCGUUCGGAUCUGCA,0.704
ACCAUGCAGGUGGGCAUCUUUGGGAAGUGGGGCAAGGGGGGGAUAGGGAGGGGGGUAACACUUUGGGUACAGGUGGUCCCAGGUCGUUUC,1.2
GUUGUAGACACUCCUGGGAUCCUGGACCACCCUCUGGAGGAUAGGAACACCAUCGAGAUGCAGGCCAUCACUGCCCUGGCCCACCUCCGU,0.87
CACAGACAACACGCACCCACACAGACACAGAGGGAAGGGGUUGGGAUGGGGACAGGGUGCACAGCAGGGCGGGGUAGGACAAAAGCCCCU,1.67
AAGUCCUGUGCUACACAUCGUAUGUACCGAAUCGGAAAAAGGUUUUUGGAAAAAGGAAAGUAUUAUGUUACGCCGUUCGGAUCUGCACUU,-1.75
ACCAUGCAGGUGGGCAUCUUUGGGAAGUGGGGCAAGGGGGGGAUAGGGAGGGGGGUAACACUUUGGGAACAGGGGGUCCCAGGUCGUUUC,0.926

# Block 5
# Target: RNA binding protein fox-1 homolog 2, RRM domain, GST-SBP tag (RBFOX2, Homo sapiens, UniProt O43251-10, residues 100-194)
# Technique: RNA Bind-n-Seq
# Molecule type: RNA
# Matrix: in vitro
# Tested at: 365 nM
# Setting: natural RNA segment, single round, ends assumed
# Reference: no-protein control
# Reading: higher = stronger binding
# Shared flanks, not repeated: GGGAGUUCUACAGUCCGACGAUC … UGGAAUUCUCGGGUGCCAA
# Target sequence (chain): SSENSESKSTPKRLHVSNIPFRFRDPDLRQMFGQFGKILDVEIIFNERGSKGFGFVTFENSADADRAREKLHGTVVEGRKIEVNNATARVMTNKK
Oligonucleotide,RBNS enrichment (R)
CCUUCUUACUCACACACAAAAUGUACCCAGUAUUCUAGGUAGUGCCCUAUUUUACAAUUGUAAAACUGAGGCACGAGCAAAGUGAAGACACUGGCUCAUAUUCCUGCAGC,0.564
ACUAGCUGUGCAGAAGAGCAGAUAACUAGCGCUGCUCUGGCAUUAAUCCCAGGAACCACUAGCAGUAGUGGGGCGCCGCCAAUCUAACAUGAGCACAGGUGCUUCAUGAC,0.223
AAAGCUGCCCAUUCUCAAGACUCAUCUGCCUAGGGAGGGUCACAGAGGCAGGAUGUAAGACACACUGUGUUGCAUUCUUGCACAAGUCAUGAAAAUGGAGCCAGAGAGCC,0.53
ACCGAGCCUGGCACAGCUCCCCUAUCCAUUGCCAGAUGAAUGUAUAAUGCUAGAUGAAGCUGUGAACCCCCCCCCCCCCUCCUGCUGAUAGAGCAGGGCAUGGGUGCUGG,1.45
AGGGUUCAGCCUUGGGAGGCCAGGCUGGCUGGCUCACUCUCUUUCUCAUUCACUGCCAGACCCCACAUGGAGAGGCACCCAAAAGGAGAAGUUGACCAUUCCAUGUCUCA,0.339
UGCUGGGCCUCCGCCUUCUUUUCUACGUGAAAUCAGUGAGGUGAGACUUCCCAGACCCCGGAGGCGUGGAGGAGAGGAGACUGUUUGAUGUGGUACAGGGGCAGUCAGUG,0.733
GUUUCCCACCUGACUCUACUAUACUCUUCCUGAUCACCAUGUGGCCUAAGAAUAUAUACUAUGGAGUCUAUGGACCACUGUAGAGAAGUUUUUAGUCUAGCCUGUUUGAU,0.372
AAAGACUGCAACAGAAACUCCCCAGCCUAGCACUCCAGAGUCCAAGGGAAGCCACCUUCCAAGAACUGGAACAUGUGCAUCUUUUGUGCCACCUUGUACAAAGCCAGCUG,0.377
GGAAUAAUAAUUUUCCUCCUAAACAAAAACACAUUGAGUUUAAGUCUCUGACUCUUGCCUUUCCACCUGCUUUCUCCUGGGCCCGCUUUGCCUGCUUGAAGGAACAGUGC,1.3
GACAAGCAGUUUAAGUUAUUUAUUUGUUAAUGCUGGCUGUGGAAACCCCAGUUCUAGGGGGCAGAAACAGGACAUUUACAUCUAGUAGGGGCUGCAAGAGCAAAGAGGAA,0.447
UUGAGCAGGGUCUGAAUUUUUUCAUUUAUUUCCUUUUUUGCCAGCAGACAGACUUGAGUCUGUAAAGACAAGCAAAUACACUGACAGAAGUUUACCAUAGUUUCUAAAAU,1.27
AUUUGGGAGGUAGAGGCAGUCAGAUCUCUGUGAGUUCAAGGCCAGCCUGGUCUACAGAGUAAGUUCUAGGACCAAACCCAAAAAAUAAAGCAAAAACAAAAGGAGGUAUU,0.543

# Excerpt of the above (block 2):
Oligonucleotide,E-score
CAAGGTAG,-0.079
AGCTGTGA,-0.00754
AAAACTAT,0.23
AATGGTAT,0.249
AACGGAGC,-0.248
CCAGATTC,-0.184
CGCCGCTC,-0.324
CGAAACGA,-0.017
ACGTACGC,-0.121
CTCTCCTC,-0.17
ACGATGCC,-0.32
CGACACCC,-0.234
ATTCGTAA,0.333
CTCATCGC,-0.0681
ATCAGACC,-0.0409
